Published values collected from several papers.
Compare with care: the assays were run in different laboratories. Several values in a cell are separate wells, animals, samples, runs or records.
Target: Macrophage colony-stimulating factor 1 receptor (CSF1R, Homo sapiens, UniProt P07333)

SMILES	assay	setting	scale	measurement	result
Cc1nc2c(F)cc(-c3nc(Nc4ccc(CNC(=O)CCCCCCC(=O)NO)cc4)ncc3F)cc2n1C(C)C	enzyme activity, inhibitor	1 µM	–	inhibition	73%
CN1CCN(c2ccc(Nc3ncc(Cl)c(Nc4ccccc4P(C)(C)=O)n3)cc2Br)CC1	enzyme activity, inhibitor	0.1 µM	–	inhibition	15.2%
COC(=O)[C@@]1(C)C=C(C(=O)Nc2cccc(C(=O)Nc3ccc(Nc4nccc(-c5cccnc5)n4)c(C)c3)c2)C(=O)CC1	enzyme activity, inhibitor, radiometric	1 µM	–	remaining activity	89%
O=C(Nc1ccc(Oc2ncnc3[nH]cc(-c4ccccc4)c23)c(F)c1)c1c2n(n(-c3cc(F)ccc3F)c1=O)CCCC2	enzyme activity, inhibitor	0.5 µM	–	inhibition	4%
NC(=O)[C@@H](O)C[C@H]1CCc2sc3ncnc(O[C@H]4CC[C@H](N5CCOCC5)CC4)c3c21	enzyme activity, inhibitor	10 µM	–	inhibition	1%
Cc1cccc(O[C@H]2CCC[C@@H](C(C)CNCc3ccncc3)C2)c1 (relative stereo)	cell-free assay	10 µM	–	inhibition	0%
Nc1ncc(-c2cc(-c3cnn(CC(F)(F)F)c3)ncc2F)nc1C(=O)NC1CNCC(F)C1 (stereo not drawn)	enzyme activity	1 µM	reference: DMSO control	remaining activity	96.1%
C=C1CCCCCCCCCC(CO)C1=O (stereo not drawn)	cell-free assay	10 µM	–	remaining signal	94%
C=CC(=O)Nc1cccc(-c2cnc3[nH]cc(C(=O)NC(C)(C)C)c3n2)c1	kinase activity	0.1 µM	–	inhibition	36% and 38%
CCn1cc(C(=O)O)c(=O)c2c(N)c(F)c(NC3CCCCC3)cc21	kinase activity	0.1 µM, added: ATP at Km	–	inhibition	0.1%
C=CC(=O)N1Cc2nc(-c3cc(-c4cc(Cl)cnc4Cl)c(F)cc3F)n(-c3ccncn3)c2C1	cell-free assay	1 µM	–	inhibition	16%
O=C=[N][Ru-4]123([n]4c5ccc(O)cc5c5c6c(c7cc(F)c[n+]1c7c54)C(=O)NC6=O)[S+]1CC[S+]2CC[S+]3CC1 (stereo not drawn)	enzyme activity	100 nM, human enzyme, added: 10 µM ATP	reference: untreated	remaining activity	68%

A few entries again:
SMILES	assay	setting	scale	measurement	result
COC(=O)[C@@]1(C)C=C(C(=O)Nc2cccc(C(=O)Nc3ccc(Nc4nccc(-c5cccnc5)n4)c(C)c3)c2)C(=O)CC1	enzyme activity, inhibitor, radiometric	1 µM	–	remaining activity	89%
